Results from different studies.
Numbered parts are unrelated; each lists some results of a single study.

Set 1 — cell line: HEK-293T; effect on: pseudovirus infection; method: FDA-approved drug library screen; organism: VSV pseudotyped with SARS-CoV-2 spike; concentration: 10 µM; time: 16 h; baseline: vehicle-treated
Structure (SMILES)	GFP-positive cells [%]
Nc1ccn([C@H]2CC[C@@H](CO)O2)c(=O)n1	89.5
CC[C@H](C)C(=O)O[C@H]1C[C@@H](C)C=C2C=C[C@H](C)[C@H](CC[C@@H]3C[C@@H](O)CC(=O)O3)[C@H]21	78.5
Cc1cccn2c(=O)c(-c3nnn[nH]3)cnc12	97.4
O=C(C1CCCCC1)N1CC(=O)N2CCc3ccccc3C2C1 (stereo not shown)	103
CC=CC(=O)N(CC)c1ccccc1C (mixture of isomers)	104

Set 2 — action: inhibitor; concentration: 20 µM
Target: Replicase polyprotein 1ab, nsp13 helicase (rep, Severe acute respiratory syndrome coronavirus 2, UniProt P0DTD1)
SMILES	inhibition
O=C(/C=C/c1ccc2c(c1)OCO2)N1CCCCC1	1.48%
CNCc1ccc(-c2cc(-c3nc(-c4ccc(S(=O)(=O)C(C)C)cc4)cnc3N)on2)cc1	15.7%
c1ccc(-c2cnn3cc(-c4ccc(OCCN5CCOCC5)cc4)cnc23)cc1	-1.25%
O=C(O)COc1nn(Cc2ccccc2)c2ccccc12	3.67%
CN1CC[C@H](c2c(O)cc(O)c3c(=O)cc(-c4ccccc4Cl)oc23)[C@H](O)C1	-0.28%
COc1cc(N2CCC(N)CC2)ccc1Nc1ncc(Cl)c(-c2c[nH]c3ccccc23)n1	56.2%
CC(=O)[C@@]1(O)CC[C@H]2[C@@H]3C=C(Cl)C4=CC(=O)[C@@H]5C[C@@H]5[C@]4(C)[C@H]3CC[C@@]21C	2.72%
N[C@@H]1CCCCN(c2c(F)cc3c(=O)c(C(=O)O)cn(C4CC4)c3c2Cl)C1	9.77%
CNc1nc(-c2ccc3c(N)n[nH]c3c2)cc(N2C[C@@H](C(=O)NC3CCCCC3)CC[C@H]2C)n1	5.22%
Cn1c(=O)c2nc[nH]c2n(C)c1=O	5.48%
CCS(=O)(=O)N(Cc1cccnc1)c1cccc(-c2ccc(C#N)cc2)c1	0.91%
Cc1c(C(N)=O)cc([N+](=O)[O-])cc1[N+](=O)[O-]	0.43%
Nc1nc(=O)c2c([nH]1)NCC(CNc1ccc(C(=O)N[C@@H](CCC(=O)O)C(=O)O)cc1)N2C=O (stereo partly shown)	1.35%
CC(=O)Nc1nc2c(Oc3cc(-c4ccc(C(F)(F)F)cc4)ncn3)cccc2s1	-0.11%

Set 3 — method: competition protein-binding microarray; molecule type: double-stranded DNA, one strand shown; medium: in vitro; concentration: 2 µM; with: Pho4 competitor, 0.05 µM; direction: higher = stronger binding
Target: Centromere-binding protein 1, full length, His-tagged (CBF1, Saccharomyces cerevisiae, UniProt P17106, residues 1-351)
UniProt P17106, sequence (whole entry, looked up): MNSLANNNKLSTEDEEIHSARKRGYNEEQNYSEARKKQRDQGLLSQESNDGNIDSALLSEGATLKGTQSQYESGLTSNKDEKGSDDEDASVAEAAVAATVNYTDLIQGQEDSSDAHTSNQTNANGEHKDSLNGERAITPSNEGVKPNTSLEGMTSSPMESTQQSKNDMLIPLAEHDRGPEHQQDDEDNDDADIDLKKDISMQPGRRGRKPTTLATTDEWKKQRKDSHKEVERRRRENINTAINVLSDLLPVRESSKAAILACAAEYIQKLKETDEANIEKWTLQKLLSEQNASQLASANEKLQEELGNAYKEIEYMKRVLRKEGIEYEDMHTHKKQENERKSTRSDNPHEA
Notes: whole 60-bp probe, lowest competitor level
Sequence	fluorescence intensity [a.u.]
CTAACGAAGGTTTGTCACGTGACTTACAAGCCAAGTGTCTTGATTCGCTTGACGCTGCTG	26000
TTAACGGTTCTCTAGCTCGTGCTTTTAAAGTTAAGTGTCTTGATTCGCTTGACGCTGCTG	117
CTTTCCCGATCTTGGAGTGTGGGTGTAGCACATTTGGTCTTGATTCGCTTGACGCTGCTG	73.3
TCTTACCTCCGTTAGCACGTCGTTGGTTAGGCTACTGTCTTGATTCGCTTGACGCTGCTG	78.4
TTACGCAGCTTTCGGCACGTGAGTACGGAAACACCAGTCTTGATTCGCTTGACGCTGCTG	1770
CTAACGAAGGTTTGTGTAGTGGGTGACAAGCCAAGTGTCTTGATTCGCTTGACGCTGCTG	70.1
CTCGCATAACGCAGGCACAGGTCTCGAACTGCGGTGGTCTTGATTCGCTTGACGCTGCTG	58.2
ATATCGTCGAATTGTCATGTGATGAAGCCAATTTATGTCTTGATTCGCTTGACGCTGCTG	1250

Set 4 — effect on: enzyme activity; action: inhibitor; concentration: 20 µM; notes: hit confirmation, with DTT
Target: Replicase polyprotein 1ab, main protease (rep, Severe acute respiratory syndrome coronavirus 2, UniProt P0DTD1)
SMILES	inhibition
Oc1c(I)cc(I)c(O)c1I	-18.8%
CN(C)C(=S)SSC(=S)N(C)C	12.7%
COc1ccc2nc(S)[nH]c2c1	15.9%
c1ccc2sc(SN3CCOCC3)nc2c1	-2.9%

A few entries again (set 2):
SMILES	inhibition
O=C(O)COc1nn(Cc2ccccc2)c2ccccc12	3.67%
CN1CC[C@H](c2c(O)cc(O)c3c(=O)cc(-c4ccccc4Cl)oc23)[C@H](O)C1	-0.28%
